Measured values from different studies.
Protocols differ between the studies behind these lines. Numbers after ± are the reported error.

| SMILES | target or system | assay | test system | setting | measurement | value |
| --- | --- | --- | --- | --- | --- | --- |
| CC(=O)NCCN(CC(=O)NCCN(CC(=O)NCCN(CC(=O)NCCC(N)=O)C(=O)C[C@@H](N)Cc1ccccc1)C(=O)C[C@@H](N)CCCNC(=N)N)C(=O)C[C@@H](N)Cc1ccccc1 | HIV-1 TAR RNA | – | – | concentration not given, 25 °C | binding enthalpy ΔH° | -7.31 ± 0.263 kcal/mol |
| C[C@H](Nc1ncnc(N)c1C#N)c1c(-c2ccccc2)[nH]c2c(Cl)cccc2c1=O | WSU-NHL | annexin V/7-AAD, item: annexin V+/7-AAD- | – | 30 nM | early apoptotic cells | 19.1% |
| CNCc1ccc2c(c1)N(C(=O)OCc1c(F)c(F)c(F)c(F)c1F)[C@H](CNC(=N)N)[C@H]2NC(=O)C(=O)Nc1ccc(Cl)c(F)c1 | Human immunodeficiency virus 1 | viral infection, Env pseudovirus | TZM-bl, TRO.11 clade B | – | IC80 | 1.53 µM |
| CCCCCCCCCCCCCCCC(=O)N[C@@H](CCC(=O)NCCOCCOCCC(=O)NCCOCCOCCC(=O)NCCCC[C@H](NC(=O)[C@H](CC(=O)O)NC(=O)[C@H](CC(C)C)NC(=O)[C@H](Cc1ccc(O)cc1)NC(=O)[C@H](CCCCN)NC(=O)[C@H](CO)NC(=O)[C@H](Cc1ccc(O)cc1)NC(=O)[C@H](CC(=O)O)NC(=O)[C@H](CO)NC(=O)[C@@H](NC(=O)[C@H](Cc1ccccc1)NC(=O)[C@@H](NC(=O)CNC(=O)[C@H](CCC(N)=O)NC(=O)[C@@H](CO)NC(=O)[C@@H](N)Cc1c[nH]cn1)[C@@H](C)O)[C@@H](C)O)C(=O)N[C@@H](CCCNC(=N)N)C(=O)N[C@@H](CCCNC(=N)N)C(=O)N[C@@H](C)C(=O)N[C@@H](CCC(N)=O)C(=O)N[C@@H](CC(=O)O)C(=O)N[C@@H](Cc1ccccc1)C(=O)N[C@H](C(=O)N[C@@H](CCC(N)=O)C(=O)N[C@@H](Cc1c[nH]c2ccccc12)C(=O)N[C@@H](CC(C)C)C(=O)N[C@@H](CC(C)C)C(=O)N[C@@H](CC(N)=O)C(=O)N[C@H](C(=O)NCC(=O)NCC(=O)N1CCC[C@H]1C(=O)N[C@@H](CO)C(=O)N[C@@H](CO)C(=O)NCC(=O)N[C@@H](C)C(=O)N1CCC[C@H]1C(=O)N1CCC[C@H]1C(=O)N1CCC[C@H]1C(=O)N[C@@H](CO)C(N)=O)[C@@H](C)O)C(C)C)C(=O)O | – | – | rhesus monkey, male, plasma | subcutaneous, 60 µg/kg, day 28, toxicokinetics, mean | Cmax | 97.9 ng/mL |
| CNCc1ccc2c(c1)C[C@H](CNC(=N)N)[C@H]2NC(=O)C(=O)Nc1ccc(Cl)c(F)c1 | Human immunodeficiency virus 1 | viral infection, Env pseudovirus | TZM-bl, ZM53M.PB12 clade C | – | IC50 | 85.7 µM |
| CC(=O)NCCN(CCC(=O)NCCN(CCC(=O)NCCN(CCC(=O)NCCC(N)=O)C(=O)[C@@H](N)CCCCN)C(=O)[C@@H](N)Cc1ccccc1)C(=O)[C@@H](N)Cc1ccccc1 | HIV-1 TAR RNA | – | – | concentration not given, 25 °C | binding enthalpy ΔH° | -12.1 ± 0.287 kcal/mol |
| F[P-](F)(F)(F)(F)F.OC(Cn1cncn1)(Cn1cc(-[c-]2cccc2)nn1)c1ccc(F)cc1F.[Co+3].c1cc[cH-]c1 (racemic) | Brugia pahangi | motility, Worminator | adult female | 50 µM, 6 d | inhibition | 55% |

A few entries again:
| SMILES | target or system | assay | test system | setting | measurement | value |
| --- | --- | --- | --- | --- | --- | --- |
| F[P-](F)(F)(F)(F)F.OC(Cn1cncn1)(Cn1cc(-[c-]2cccc2)nn1)c1ccc(F)cc1F.[Co+3].c1cc[cH-]c1 (racemic) | Brugia pahangi | motility, Worminator | adult female | 50 µM, 6 d | inhibition | 55% |
